Measured values collected from several papers.
Each line is one published result; not all experiments were run side by side. ± gives the spread as reported.

Compound | assay | test system | setting | how to read | quantity | value
CC(C)[C@H](NC(=O)[C@H](Cc1c[nH]c2ccccc12)NC(=O)[C@H](CCCNC(=N)N)NC(=O)[C@H](CCCNC(=N)N)NC(=O)[C@@H](NC(=O)[C@@H](NC(=O)[C@H](CCCNC(=N)N)NC(=O)[C@@H](NC(=O)[C@@H](NC(=O)[C@H](CCCNC(=N)N)NC(=O)[C@H](CCCNC(=N)N)NC(=O)[C@@H](NC(=O)[C@H](Cc1c[nH]c2ccccc12)NC(=O)[C@H](CCCNC(=N)N)NC(=O)[C@H](CCCNC(=N)N)NC(=O)[C@@H](NC(=O)[C@H](CCCNC(=N)N)NC(=O)[C@H](CCCNC(=N)N)NC(=O)[C@@H](NC(=O)[C@H](Cc1c[nH]c2ccccc12)NC(=O)[C@H](CCCNC(=N)N)NC(=O)[C@@H](N)CCCNC(=N)N)C(C)C)C(C)C)C(C)C)C(C)C)C(C)C)C(C)C)C(C)C)C(=O)N[C@@H](CCCNC(=N)N)C(=O)N[C@@H](CCCNC(=N)N)C(=O)O |  | mice | intravenous, 14 days observation, 5 daily doses |  | MTD | 15 mg/kg
Cc1cc(-c2ccc3ccccc3c2)nnc1NCCN1CCN(C)CC1 | metabolic stability | human, liver microsomes | 10 min |  | compound remaining | 97.8%
C#Cc1c(F)ccc2cc(O)cc(-c3ncc4c(N5CC6CCC(C5)N6C(=O)OC(OC(=O)CCC)C(C)C)nc(OC[C@@]56CCCN5C[C@H](F)C6)nc4c3F)c12 (stereo partly shown) | measured: prodrug | mouse whole blood | 1 µM |  | t1/2 | 4.41 min
COc1ccc(CNc2ccc3c(c2)S(=O)(=O)C=C3)cc1 | flow cytometry | male C57BL/6 mice, spleen | i.p., 10 mg/kg, 8 days | baseline: splenocytes | CD45+ cells | 54.3%
CCCCCCCCCCCCCCCC(=O)N[C@@H](CCC(=O)NCCOCCOCCC(=O)NCCOCCOCCC(=O)NCCCC[C@H](NC(=O)[C@H](CC(=O)O)NC(=O)[C@H](CC(C)C)NC(=O)[C@H](Cc1ccc(O)cc1)NC(=O)[C@H](CCCCN)NC(=O)[C@H](CO)NC(=O)[C@H](Cc1ccc(O)cc1)NC(=O)[C@H](CC(=O)O)NC(=O)[C@H](CO)NC(=O)[C@@H](NC(=O)[C@H](Cc1ccccc1)NC(=O)[C@@H](NC(=O)CNC(=O)[C@H](CCC(N)=O)NC(=O)[C@@H](CO)NC(=O)[C@@H](N)Cc1c[nH]cn1)[C@@H](C)O)[C@@H](C)O)C(=O)N[C@@H](CCCNC(=N)N)C(=O)N[C@@H](CCCNC(=N)N)C(=O)N[C@@H](C)C(=O)N[C@@H](CCC(N)=O)C(=O)N[C@@H](CC(=O)O)C(=O)N[C@@H](Cc1ccccc1)C(=O)N[C@H](C(=O)N[C@@H](CCC(N)=O)C(=O)N[C@@H](Cc1c[nH]c2ccccc12)C(=O)N[C@@H](CC(C)C)C(=O)N[C@@H](CC(C)C)C(=O)N[C@@H](CC(N)=O)C(=O)N[C@H](C(=O)NCC(=O)NCC(=O)N1CCC[C@H]1C(=O)N[C@@H](CO)C(=O)N[C@@H](CO)C(=O)NCC(=O)N[C@@H](C)C(=O)N1CCC[C@H]1C(=O)N1CCC[C@H]1C(=O)N1CCC[C@H]1C(=O)N[C@@H](CO)C(N)=O)[C@@H](C)O)C(C)C)C(=O)O |  | rhesus monkey, both sexes, plasma | subcutaneous, 20 µg/kg, multiple doses, day 1 |  | AUC(0-t) | 62.3 ± 19.5 ng·h/mL
c1cc([C@H]2CCC[C@@]3(C2)OOC2(O3)C3CC4CC(C3)CC2C4)ccc1OCCN1CCOCC1 (mixture of isomers) | metabolic stability | human, liver microsomes |  |  | microsomal CLint | 21.6 µL/min/mg
O=C1NC2(CC2)COc2ncc(F)cc2[C@H]2COCCN2c2ccn3ncc1c3n2 |  | Sprague-Dawley rat, male, testes | oral, 10 mg/kg/day, 4 weeks, end of treatment |  | organ-to-body weight ratio | 0.736 ± 0.073%
C/C(=N\OCCCN1CCCCC1)c1ccc(C(F)(F)F)cc1 |  | mouse, plasma | oral, 150 mg/kg once daily, day 7 |  | AUC(0-t) | 10400 ± 1130 ng·h/mL
CC[C@H](C)[C@H](NC(=O)[C@H](CCCCN)NC(=O)CNC(=O)[C@H](CC(C)C)NC(=O)[C@H](Cc1ccccc1)NC(=O)[C@H](CCCCN)NC(=O)[C@H](CO)NC(=O)[C@H](Cc1ccccc1)NC(=O)[C@H](Cc1c[nH]c2ccccc12)NC(=O)[C@H](CCC(N)=O)NC(=O)[C@@H](NC(=O)[C@H](Cc1ccccc1)NC(=O)CCCCCNC(=O)CN1CCN(CC(=O)O)CCN(CC(=O)O)CCN(CC(=O)O)CC1)C(C)C)C(=O)N[C@@H](CCC(=O)O)C(=O)N1CCC[C@H]1C(=O)N[C@@H](CC(=O)O)C(=O)N[C@H](C(=O)N[C@@H](CO)C(=O)N[C@@H](CCC(N)=O)C(=O)N[C@H](C(=O)N[C@@H](CCC(N)=O)C(=O)N[C@@H](CC(=O)O)C(=O)N1CCC[C@H]1C(=O)N[C@@H](CC(N)=O)C(=O)N[C@@H](CC(=O)O)C(=O)N[C@@H](CCC(N)=O)C(=O)N[C@@H](Cc1ccc(O)cc1)C(=O)N[C@@H](CCC(=O)O)C(=O)N1CCC[C@H]1C(=O)N[C@@H](Cc1ccccc1)C(=O)O)C(C)C)C(C)C [copper-64 labelled] | dynamic PET | mouse both sexes, CT26 tumour, checkpoint inhibitor-treated, tumour | intravenous, 100 µCi/mouse, 1050 s |  | SUVmean | 3.46 SUV
CC(=O)NCCCC[C@@H]1NC(=O)[C@H](Cc2c[nH]c3c(C)cccc23)NC(=O)[C@H]([C@@H](C)O)NC(=O)[C@H](CC(N)=O)NC(=O)[C@@H](NC(C)=O)C(C)(C)SSC(C)(C)[C@@H](C(=O)N[C@@H](Cc2ccc(OCCN)cc2)C(=O)N[C@@H](Cc2ccc3ccccc3c2)C(=O)NC2(C(=O)N[C@@H](CCC(=O)O)C(=O)N[C@@H](CC(N)=O)C(=O)N[C@@H](Cc3cccnc3)C(=O)N(C)CC(N)=O)CCOCC2)NC1=O | metabolic profiling | Sprague Dawley rat, plasma | oral, 300 mg/kg, 0 to 24 h |  | share of drug-related material | > 95%
CSCC[C@H](N)C(=O)N[C@@H](C)C(=O)N[C@@H](CCCNC(=N)N)C(=O)N[C@@H](CCCNC(=N)N)C(=O)N[C@@H](CC(=O)O)C(=O)N[C@@H](CCCCN)C(=O)N[C@H](C(=O)N[C@@H](CC(=O)O)C(=O)N[C@@H](Cc1ccccc1)C(=O)N[C@@H](C)C(=O)N[C@@H](CCCNC(=N)N)C(=O)N[C@@H](CCCNC(=N)N)C(=O)N[C@@H](CCCNC(=N)N)C(=O)N[C@@H](CCCNC(=N)N)C(=O)NCCCCCC(=O)NCCCCC(NC(=O)CCCCCNC(=O)[C@H](CCCNC(=N)N)NC(=O)[C@H](CCCNC(=N)N)NC(=O)[C@H](CCCNC(=N)N)NC(=O)[C@H](CCCNC(=N)N)NC(=O)[C@H](C)NC(=O)[C@H](Cc1ccccc1)NC(=O)[C@H](CC(=O)O)NC(=O)[C@@H](NC(=O)[C@H](CCCCN)NC(=O)[C@H](CC(=O)O)NC(=O)[C@H](CCCNC(=N)N)NC(=O)[C@H](CCCNC(=N)N)NC(=O)[C@H](C)NC(=O)[C@@H](N)CCSC)[C@@H](C)O)C(=O)NCCCCC(NC(=O)C(CCCCNC(=O)CCCCCNC(=O)[C@H](CCCNC(=N)N)NC(=O)[C@H](CCCNC(=N)N)NC(=O)[C@H](CCCNC(=N)N)NC(=O)[C@H](CCCNC(=N)N)NC(=O)[C@H](C)NC(=O)[C@H](Cc1ccccc1)NC(=O)[C@H](CC(=O)O)NC(=O)[C@@H](NC(=O)[C@H](CCCCN)NC(=O)[C@H](CC(=O)O)NC(=O)[C@H](CCCNC(=N)N)NC(=O)[C@H](CCCNC(=N)N)NC(=O)[C@H](C)NC(=O)[C@@H](N)CCSC)[C@@H](C)O)NC(=O)CCCCCNC(=O)[C@H](CCCNC(=N)N)NC(=O)[C@H](CCCNC(=N)N)NC(=O)[C@H](CCCNC(=N)N)NC(=O)[C@H](CCCNC(=N)N)NC(=O)[C@H](C)NC(=O)[C@H](Cc1ccccc1)NC(=O)[C@H](CC(=O)O)NC(=O)[C@@H](NC(=O)[C@H](CCCCN)NC(=O)[C@H](CC(=O)O)NC(=O)[C@H](CCCNC(=N)N)NC(=O)[C@H](CCCNC(=N)N)NC(=O)[C@H](C)NC(=O)[C@@H](N)CCSC)[C@@H](C)O)C(N)=O)[C@@H](C)O (stereo partly shown) |  | C57BL/6 mouse female, ovary | dose not given, 6 h | baseline: total | mean tissue distribution | 0.3%
CN1Cc2cc(Cl)ccc2-n2c(nnc2C2CCN(c3cccc(F)n3)CC2)C1 |  | Sprague-Dawley rats male, pituitary | intravenous, 0.03 mg/kg, 5 min |  | concentration | 38.7 ± 5.71 ng/mL
CC(CCC(=O)NCC(=O)O)C1CCC2C3C(O)CC4CC(OC5OC(C(=O)O)C(O)C(O)C5O)CCC4(C)C3CCC12C (stereo not shown) |  | women, C/C genotype, plasma | dose not given, geometric mean |  | plasma concentration | 139 ng/mL

Some of these lines once more:
Compound | assay | test system | setting | how to read | quantity | value
CN1Cc2cc(Cl)ccc2-n2c(nnc2C2CCN(c3cccc(F)n3)CC2)C1 |  | Sprague-Dawley rats male, pituitary | intravenous, 0.03 mg/kg, 5 min |  | concentration | 38.7 ± 5.71 ng/mL
CCCCCCCCCCCCCCCC(=O)N[C@@H](CCC(=O)NCCOCCOCCC(=O)NCCOCCOCCC(=O)NCCCC[C@H](NC(=O)[C@H](CC(=O)O)NC(=O)[C@H](CC(C)C)NC(=O)[C@H](Cc1ccc(O)cc1)NC(=O)[C@H](CCCCN)NC(=O)[C@H](CO)NC(=O)[C@H](Cc1ccc(O)cc1)NC(=O)[C@H](CC(=O)O)NC(=O)[C@H](CO)NC(=O)[C@@H](NC(=O)[C@H](Cc1ccccc1)NC(=O)[C@@H](NC(=O)CNC(=O)[C@H](CCC(N)=O)NC(=O)[C@@H](CO)NC(=O)[C@@H](N)Cc1c[nH]cn1)[C@@H](C)O)[C@@H](C)O)C(=O)N[C@@H](CCCNC(=N)N)C(=O)N[C@@H](CCCNC(=N)N)C(=O)N[C@@H](C)C(=O)N[C@@H](CCC(N)=O)C(=O)N[C@@H](CC(=O)O)C(=O)N[C@@H](Cc1ccccc1)C(=O)N[C@H](C(=O)N[C@@H](CCC(N)=O)C(=O)N[C@@H](Cc1c[nH]c2ccccc12)C(=O)N[C@@H](CC(C)C)C(=O)N[C@@H](CC(C)C)C(=O)N[C@@H](CC(N)=O)C(=O)N[C@H](C(=O)NCC(=O)NCC(=O)N1CCC[C@H]1C(=O)N[C@@H](CO)C(=O)N[C@@H](CO)C(=O)NCC(=O)N[C@@H](C)C(=O)N1CCC[C@H]1C(=O)N1CCC[C@H]1C(=O)N1CCC[C@H]1C(=O)N[C@@H](CO)C(N)=O)[C@@H](C)O)C(C)C)C(=O)O |  | rhesus monkey, both sexes, plasma | subcutaneous, 20 µg/kg, multiple doses, day 1 |  | AUC(0-t) | 62.3 ± 19.5 ng·h/mL
